Measured values collected from several papers.
Numbered parts are unrelated; each lists some results of a single study. Positions count from the first letter of the parent shown.

Sample 1
Target: CCNA2, cyclin fold, Cln2 fusion (human)
Technique: yeast growth competition, sequencing
Sample: yeast
Setting: strong parent motif
Reference: not given
Direction: higher = stronger binding
Parent: PKMYT1 docking peptide (human); SFEPRNLLSLFED; partner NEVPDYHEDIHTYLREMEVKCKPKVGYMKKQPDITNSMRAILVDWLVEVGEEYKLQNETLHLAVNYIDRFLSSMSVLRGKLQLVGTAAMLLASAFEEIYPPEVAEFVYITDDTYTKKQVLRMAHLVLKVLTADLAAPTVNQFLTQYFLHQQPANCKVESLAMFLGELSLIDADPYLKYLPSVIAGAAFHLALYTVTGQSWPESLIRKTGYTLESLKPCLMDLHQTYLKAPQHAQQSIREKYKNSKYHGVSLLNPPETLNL
Substitution | normalised enrichment score
E3R | 4.72
L8R | 0.166
S9K | 2.15
N6G | 0.421
N6R | 1.89
S1R | 4.23
E3A | 3.31
S9L | 1.91
L10F | 1.81
L8S | 1.75
N6H | 0.0496
R5K F11L | 0.59
L10N | 1.91
E12T | 1.91
E3T | 3.27

Sample 2
Target: Sal-like protein 4, full length isoform B (SALL4, Homo sapiens, UniProt Q9UJQ4-2, residues 1-616)
Technique: universal PBM
Molecule type: double-stranded DNA, one strand shown
Sample: in vitro
Concentration: not given
Setting: 8-mer, flanks averaged, mean of replicates
Direction: higher = stronger binding
Target sequence (chain): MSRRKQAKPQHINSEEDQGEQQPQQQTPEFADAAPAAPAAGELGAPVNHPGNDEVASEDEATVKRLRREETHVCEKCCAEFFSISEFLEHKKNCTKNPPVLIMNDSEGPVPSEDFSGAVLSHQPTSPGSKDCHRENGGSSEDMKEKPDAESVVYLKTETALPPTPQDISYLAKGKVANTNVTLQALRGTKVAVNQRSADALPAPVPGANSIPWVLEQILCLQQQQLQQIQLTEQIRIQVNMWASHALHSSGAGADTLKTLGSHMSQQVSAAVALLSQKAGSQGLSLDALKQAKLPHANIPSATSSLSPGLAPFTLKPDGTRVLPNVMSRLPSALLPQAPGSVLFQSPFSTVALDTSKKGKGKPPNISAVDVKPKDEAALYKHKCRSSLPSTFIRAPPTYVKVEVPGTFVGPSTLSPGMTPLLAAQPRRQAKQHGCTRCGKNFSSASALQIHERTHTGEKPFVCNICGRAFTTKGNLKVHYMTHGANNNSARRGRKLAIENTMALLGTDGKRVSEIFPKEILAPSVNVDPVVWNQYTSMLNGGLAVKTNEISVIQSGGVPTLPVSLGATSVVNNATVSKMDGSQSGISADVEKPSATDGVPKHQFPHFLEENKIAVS
Strand | E-score
CGGTTTCC | -0.263
CAAGAAAC | 0.0263
CGGCCCTA | -0.286
ACGGTGAC | -0.143
CAGTGGAA | -0.172
AAAACGCT | 0.144
CGGACTGC | -0.138
CCCCTCCC | -0.269
GAATCCGA | 0.00824
GCTATAAC | 0.208
GAACTGTA | 0.223
CCTCCACG | -0.128
AAATGCCT | 0.132
GCCAATAC | -0.0288
CAGGTATG | -0.0107
ATAAATTA | 0.417
GAACCTGA | -0.128
CCGAAAAG | 0.0289
AACCGAGT | -0.193
GATTCGCC | -0.0611
AGTCTGCC | -0.172
AGCCCTAA | 0.0222
ACCGGCCC | -0.337
CCACTTAG | -0.0813

Sample 3
Target: RNA binding protein fox-1 homolog 2, RRM domain, GST-SBP tag (RBFOX2, Homo sapiens, UniProt O43251-10, residues 100-194)
Technique: RNA Bind-n-Seq
Molecule type: RNA
Sample: in vitro
Concentration: 365 nM
Setting: natural RNA segment, single round, ends assumed
Reference: no-protein control
Direction: higher = stronger binding
All sequences stand within: GGGAGUUCUACAGUCCGACGAUC … UGGAAUUCUCGGGUGCCAA
Residues (chain): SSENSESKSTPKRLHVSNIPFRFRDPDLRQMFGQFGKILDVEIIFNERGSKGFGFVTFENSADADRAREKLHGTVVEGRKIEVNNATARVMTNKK
Strand | RBNS enrichment (R)
GGAAGCAUAUUUAGCCAUCUAUGUGGCUUUAUGGCCCACAGACCUUGCCUUUUAGUCCUAUACAAAUGUACCUUUCUAUAAAGGGGUGCAAGCAGCACUUCAGAAGAAAC | 0.347
CUUGUAACAAUUAAAAUUGCUUUUCUUCCAUGUUUCUCUUGGCAGAGAGAAAUGCCAUCAUGCUUACUGCUCUUUUGGAUUCUUCAUGCAGUGGCUUCCCAUUUGCUCUG | 0.883
ACAGUGCACGUGCAUGAUGGAGCUGUGGGACCCUCUCUGGGCUGGGUCUCAUCUGUAAGCUGCUACAGCCCAGAUGAACUCUGCCAGCCGCCAGUGCAUCCAGUACAGCG | 17.7
UUUGUAUAUCUCCAGGCAAGGUGAAGGGUACCCUUCGGACCCGCCUCAUAAACCAUCUCUGCAUCACCAUGAACCCAGACUAGCUGUGGUGCCAGAAACCUGAACUUAAA | 0.497
UCUACUGCCCUCCCCUCCCCUAUCCAAGUAGCAGUUAAGUUCCAUCCAAAUACGUGGGACUCAAAGACUCCUAGUCAGCUGUAGUUCUGGAGGCUCUGAAUGUCUAACUU | 0.407
CCCACCUUGAACAUCAUGAGCUGUUGUUAUUAGUCUUGGAAGCAGAGUCUGGGUUGGUGUGGAUAGCAAAGGAGGAAGUCUGAGCCCCUCAUUGGUCUUCCUCCCACCUG | 2.02
AUAUUUAAUUAAGGGACUAGUUGAGAUAGUUCAUGCAAAAGCACCAGAAAACUUAAAACAGGGUUCUCUGGGGCUGGAAGCCAGAUUAGGGACAGGGCCUUUUCAUUAAU | 0.401
GCACCACCAAGCCAAGGGAACCUGUGUCCGGUAUUCGAUACUGCGACUUUCUGCCUGGAGUGUAUGACUGCACAUGACUCGGGGGUGGGGAAAGGGGUCGGCUGACCAUG | 0.474
UUUAGCCGUGUUUUGACUGUCUAGUAUUUCUAAAUAUUUCUCUGUAUCCUGGAUGGUCUCAUAACGUUGGCCAUAAUAGGUACAUAAUCAGAAGAUCACUUAGACAACAU | 0.319
ACCAUCCCCGGGGCCAGCCGGGACGUUGUCGGUUUAUUUCUGUAAAUAGAAACCAGCAAGUGUAUACUGUGAUUUAUUUUAAUGUAUUCUUAAGGACAGAAUGGAAAUUC | 1.1
UCACUUGGAUCUUGUGGUGAGGACGGCCCCAUCUUUCUUGCCACAGAUUGAGGCCACUUUUGAGCAAGGGAGAUCCUGGAGUUAAGACAGGUGUUGGGGGCAGCCUGUAU | 0.899
UCGCUGUAAAGAAAGGCCAUGCUUUUGUGUUAGUGGAGACAGUCUAGAGUUGCUCAGAAUCUUGUAGGGUUUUCUGAUCUGGUUACCUCUAGCUGCCAUGUGGGGUCCAC | 0.474

Sample 4
Target: Phosphate system positive regulatory protein PHO4, full length, GST-tagged (PHO4, Saccharomyces cerevisiae, UniProt P07270, residues 1-312)
Technique: competition protein-binding microarray
Molecule type: double-stranded DNA, one strand shown
Sample: in vitro
Concentration: 2 µM
Setting: whole 60-bp probe, lowest competitor level
Added: Cbf1 competitor, 0.05 µM
Direction: higher = stronger binding
All sequences stand within: … GTCTTGATTCGCTTGACGCTGCTG
Target sequence (chain): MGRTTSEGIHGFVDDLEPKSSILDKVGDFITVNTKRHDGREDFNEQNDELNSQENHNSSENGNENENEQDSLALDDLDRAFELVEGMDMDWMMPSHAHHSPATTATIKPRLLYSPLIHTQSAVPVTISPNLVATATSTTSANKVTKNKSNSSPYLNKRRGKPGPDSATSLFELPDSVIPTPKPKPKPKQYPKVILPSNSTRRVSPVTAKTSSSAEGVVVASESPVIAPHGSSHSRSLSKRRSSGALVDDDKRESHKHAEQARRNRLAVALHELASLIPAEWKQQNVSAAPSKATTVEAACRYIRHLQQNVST
Strand | fluorescence intensity [a.u.]
AACGACTTCGTCAAGTCCGTGACGGAGTCGGGGTAC | 4120
CGGCTTACTTTGTAACGCGTGGTCGCCTATACACCG | 8450
GTCTTGTCTCATTGTCGGGTGGGTGTCCCCACTTCA | 4570
GGTTCAAAATCCCGTCACGATGAAATAGAAAATGAA | 5960
AAATTACTAAGTTGTTAAGTGGGTGACGCCGTATGA | 3670
TCCAAGACGGTTAATCTCGTGATGGATTTTGACTAC | 6720
AACGGCGTCCGCAGAACCGTGACGGAATCTGCGGTT | 5120
CTTTCCCGATCTTGACTAGTGGGTGTAGCACATTTG | 4090
TTTAAAAGATGAAAGCACGTTACAAGCCTCTTCTTA | 8760
TAGCTGACATCCAAGCATGCGTGGAAGATTTCTTAA | 7620
CGTCCTAGCGATTGAGTGGTGGGTGCCATGAGGAAG | 6830
GTTTGATAATGTCAACACGTCATCATAGATGGTTGT | 6360
AAAGCGGTAATTTGACCAGTGGGTGCAGATATCTAT | 3790
TTCTGACGGAGACAGAACGTGGCCGTGTACACTCTT | 14400
ATATTTCAGCTCCATCACGTGCTTTCAAAGGTACTT | 15100
CGTCCTAGTGATTGTCACACTACTTCCATGAGGAAG | 4660
CTATTGGTATATGTGTCCGTGACAAAGTAGTTAGTG | 5740
CTTTCCCGATCTTGCTTGGTGGGTGTAGCACATTTG | 4340
GTCTTGTCTCATTGCTTAGTGGGTGTCCCCACTTCA | 5010

Sample 5
Target: RING finger protein unkempt homolog, zinc fingers 1-6, GST-SBP tag (UNK, Homo sapiens, UniProt Q9C0B0, residues 30-357)
Chain of UniProt Q9C0B0 (30-357, looked up): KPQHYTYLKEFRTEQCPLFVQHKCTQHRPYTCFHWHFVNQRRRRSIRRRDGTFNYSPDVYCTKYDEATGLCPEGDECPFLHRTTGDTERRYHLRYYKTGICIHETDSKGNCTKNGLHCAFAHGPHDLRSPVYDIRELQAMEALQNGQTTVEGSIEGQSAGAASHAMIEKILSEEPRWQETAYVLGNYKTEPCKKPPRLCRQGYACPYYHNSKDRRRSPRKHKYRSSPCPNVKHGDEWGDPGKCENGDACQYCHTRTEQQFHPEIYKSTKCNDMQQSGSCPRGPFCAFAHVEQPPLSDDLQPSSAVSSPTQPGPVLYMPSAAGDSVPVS
Technique: RNA Bind-n-Seq
Molecule type: RNA
Sample: in vitro
Concentration: not given
Setting: RNA with constant flanks, ends assumed
Reference: input RNA pool
Direction: higher = stronger binding
All sequences stand within: GGGAGUUCUACAGUCCGACGAUC … CAACAGAGGAUUGAGCAUCA
Strand | bound/input enrichment [ratio]
GUUUCAGCCGCAGCUGAAUUUGAGAAUGCUGAAUCUGAGGCUGAUUUCAGUAUACAUUUCAACCGAUUCAACCCCGAUGGGGAAGAGGAAGAUGUUACAGUACAAGAAUGACUUUCUCUU | 0.115
AUUUAUCUGUAUGAAAUUCCAGUAGUUAAUUUGAACAUUUAUUUAUAUGACGUUUGUAUUUUCCGGUCUUUAAUACAGUGUUUCUACCUCUCAUUUGUAACUGCAUGCAUUAUUCUUGAA | 6.67
GCUGAAGUACCACACAUUAGAGAAAGUGUAAUGAGACAAGGGCGCCAUCUGUGUUUCCAGUCCGUAAGUCCAACAGGAACAGCUGUUUCAACUCUUAGUUACAUAAGCAGGACAAAUCAG | 0.341
CCCCUUCAAGAGAUUCUCGUUUUUCAAAGAUGUGUAUAUCCUUUUAUCACUCACAAGUGGCCGCAUGUCAGAUGCUUCCCCCACCCCCACUGCUUUAUGUAAUAUGUCAUGGGCAUUUCG | 0.518
UCCAGGUCUCUCCAAACUGACUAUAUAUUUAUUUGUUAUUUUAAAAAUACAACUAUAUUUUGGGCCGUUUUUUUUUUUUUUUUUUUGAUAAGUUGGUGUAAGGCUAUGUGACUUGAUCAA | 1.44
UCUGACAUUUCUACUCUUGGACACCUGGUAAUAACCACUCAGGGAGGAUAUGUAAAAAUACCCGAUCUUUCAAACUUUGAAAUUUUGGCCAAAGUGGAGCCUCCCAAAAAGGAGGGCACU | 0.27
UUCUGGUUCAGAUCUGUGCCUUUGGCUGCAACAAGUAUGUUGAUUACUCAAGGAUUAAUCCGUAAAGGAAUACUUUCAAGUCAUCCCAAAUAUGGUUCCAUCCCUAAACUUAUACUUGCU | 0.445
AGUACACAAACUAAUGGACCUUCUGUUCCUAGUGAAGAAGAAAUUGUUCAGCCACUGGACCGCACAAGAGUGGCUUCUUACAGUGGCACUGUUACUCAAGCCACAUUCACCAGGACUUAC | 0.163

A few entries again (sample 2):
Strand | E-score
AACCGAGT | -0.193
GATTCGCC | -0.0611
AGTCTGCC | -0.172
AGCCCTAA | 0.0222
